# Measured values of several laboratories.
# A part holds a random share of what one study measured.

# Sample 1 — observed: enzyme activity; mode: inhibitor; concentration: 20 µM
# Target: Replicase polyprotein 1ab, polymerase (rep, Severe acute respiratory syndrome coronavirus 2, UniProt P0DTD1)
SMILES,inhibition [%]
N#Cc1ccc2[nH]c(O)c(-c3ccc(CN4CCOCC4)cn3)c2c1,2.07
C[C@@]1(CO)[C@H](O)CC[C@@]2(C)[C@H]1CC[C@H]1C[C@@H]3C[C@@]12CC[C@]3(O)CO,-1.09
CCCCn1c(-c2ccccc2)nc(-c2ccccc2)c1CN(Cc1ccc2c(c1)OCO2)Cc1ccc2c(c1)OCO2,-10.7
CCCCCCCCCCCCCCCCCCCCCC(=O)Nc1ccn([C@@H]2O[C@H](CO)[C@@H](O)[C@@H]2O)c(=O)n1,-5.51
NCCc1ccccn1,-0.62
COc1ccccc1OCC(O)CNC(C)C (stereo not drawn),-0.5
CCOC(=O)C1=C(C)NC(C)=C(C(=O)OC)C1c1cccc([N+](=O)[O-])c1 (stereo not drawn),-1.66
CCN(CC)CCNc1ccc(CO)c2sc3ccccc3c(=O)c12,2.76
O=C(O)COc1cccc(-c2ocnc2-c2nc(-c3ccccc3)c(-c3ccccc3)o2)c1,1.38
NC(N)=NC(=O)c1cnccn1,3.61
CC(N)Cc1c[nH]c2ccc(OCc3cccs3)cc12 (stereo not drawn),6.38
N=C(N)NCCSSCCN=C(N)N,-5.31
O=C(O)[C@@H]1C[C@@H](O)CN1,-6.48
CC(C)NC[C@@H](C(=O)N1CCN(c2ncnc3c2[C@H](C)C[C@H]3O)CC1)c1ccc(Cl)cc1,0.45
CCOC(=O)c1ccccc1OC(N)=O,1.85
CCC(=O)NCC[C@@H]1CCc2ccc3c(c21)CCO3,-2.52
CC(=O)NC(Cc1ccccc1)C(=O)O (stereo not drawn),0.66
CC[C@H](NC(=O)c1c(C)c(-c2ccccc2)nc2ccccc12)c1ccccc1,-2.01
CC(OC(=O)OC1CCCCC1)OC(=O)C1=C(CSc2nnnn2CCN(C)C)CS[C@@H]2[C@H](NC(=O)Cc3csc(N)n3)C(=O)N12 (stereo partly drawn),2.42
Cc1cc(-c2ncc(CC(=O)Nc3ccc(-c4cnccn4)cn3)cc2C)ccn1,-2.51
CCO[C@@H]1OC(=O)C[C@@H]1NC(=O)[C@@H]1CCCN1C(=O)[C@@H](NC(=O)c1ccc(N)c(Cl)c1)C(C)(C)C,0.38
CC[C@@H](C)Nc1cc(C(=O)N[C@H]2C[C@H]3CC[C@@H](C2)N3c2ccc(C(=O)C3CC3)cn2)c(C)cc1C(N)=O,-15.2
O=C(O)c1ccccc1NC(=O)N1CCC(c2ccccc2C(F)(F)F)CC1,-3.45
CC(C)CC(N(C)C)C1(c2ccc(Cl)cc2)CCC1 (stereo not drawn),-0.36
CC(C)NCC(O)COc1ccccc1-n1cccc1 (stereo not drawn),-2.56

# Sample 2 — cell line: HEK-293T; observed: pseudovirus infection; method: FDA-approved drug library screen; organism: VSV pseudotyped with SARS-CoV-2 spike; concentration: 10 µM; time: 16 h; reference: vehicle-treated
SMILES,GFP-positive cells
CCN1CCN(C(=O)N[C@@H](C(=O)N[C@@H]2C(=O)N3C(C(=O)O)=C(CSc4nnnn4C)CS[C@H]23)c2ccc(O)cc2)C(=O)C1=O,79.3%
CCCCC(=O)O[C@]1(C(=O)CO)CC[C@H]2[C@@H]3CCC4=CC(=O)CC[C@]4(C)[C@H]3[C@@H](O)C[C@@]21C,109%
CC(=O)N1CCN(c2ccc(OCC3COC(Cn4ccnc4)(c4ccc(Cl)cc4Cl)O3)cc2)CC1 (stereo not drawn),67.5%
C[N+]1(C)[C@@H]2C[C@@H](OC(=O)C(O)(c3cccs3)c3cccs3)C[C@H]1[C@@H]1O[C@@H]12,93.9%
CN(Cc1ccc(C(C)(C)C)cc1)Cc1cccc2ccccc12,80.6%

# Sample 3 — observed: enzyme activity; mode: inhibitor; concentration: 20 µM; setting: hit confirmation, no DTT
# Target: Replicase polyprotein 1ab, main protease (rep, Severe acute respiratory syndrome coronavirus 2, UniProt P0DTD1)
SMILES,inhibition [%]
CC[N+](C)(CC)CCC[n+]1c(-c2ccccc2)c2cc(N)ccc2c2ccc(N)cc21,90.9
COc1cc(-c2ccc(/N=N/c3ccc4c(S(=O)(=O)O)cc(S(=O)(=O)O)c(N)c4c3O)c(OC)c2)ccc1/N=N/c1ccc2c(S(=O)(=O)O)cc(S(=O)(=O)O)c(N)c2c1O,94.5
NC(Cc1cc(O)c(O)cc1O)C(=O)O (racemic),83.9
O=C(O)c1ccc(SSc2ccc(C(=O)O)cn2)nc1,98.9
C=C1C(=O)O[C@H]2[C@H]1CC/C(C)=C/CC[C@@]1(C)O[C@@H]21,86.2

# Sample 4 — method: RNA Bind-n-Seq; form: RNA; sample: in vitro; concentration: 200 nM; setting: whole 134-nt RNA, ends assumed; added: 150 mM KCl; reference: input library; direction: higher = stronger binding
# Target: Ras GTPase-activating protein-binding protein 1, full length (G3BP1, Homo sapiens, UniProt Q13283)
# Chain of UniProt Q13283 (whole entry, looked up): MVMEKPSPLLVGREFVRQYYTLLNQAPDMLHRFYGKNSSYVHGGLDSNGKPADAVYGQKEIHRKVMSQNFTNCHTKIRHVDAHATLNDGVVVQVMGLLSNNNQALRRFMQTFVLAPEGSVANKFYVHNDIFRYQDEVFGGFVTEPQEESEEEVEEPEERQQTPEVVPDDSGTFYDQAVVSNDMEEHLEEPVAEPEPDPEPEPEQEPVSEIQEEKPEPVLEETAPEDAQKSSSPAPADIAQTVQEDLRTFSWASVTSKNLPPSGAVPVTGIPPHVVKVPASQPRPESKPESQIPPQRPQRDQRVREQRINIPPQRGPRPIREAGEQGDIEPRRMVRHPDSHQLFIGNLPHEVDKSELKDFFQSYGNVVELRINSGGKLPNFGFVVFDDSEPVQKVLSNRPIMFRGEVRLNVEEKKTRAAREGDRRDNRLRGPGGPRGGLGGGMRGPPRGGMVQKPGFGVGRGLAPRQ
# All sequences stand within: GGGAGUUCUACAGUCCGACGAUC … UGGAAUUCUCGGGUGUCAAGG
Oligonucleotide,log2 enrichment
UUGGGUCCAGACUGCGCCACAGCCUCUCGGGAGACGUGGGCCCUCGGAACCUUUUUAGUGCCGGACUCCGGGCCGCAGGCAGUCCCGCGG,-2.72
UAACUUUAGAGGAGGAUCUGAUGGAUAUGGCAGUGGACGUGUAUUUGGGGAUGGCUAUAAUGGGUAUGGAGGAGGACCUGGAGGUGGCAA,0.198
UCAAGUCCUGUGCUACACAUCGUAUGUACCGAAUCGGGCCCGGCCCGGGCCCGGAAAGUAUUAUGUUACGCCGUUCGGAUCUGCACUUCC,-1.09
UAACUUUAGAGGAGGAGCUGAUGGAUAUGGCAGUGGACGUGGAUUUGGGGAUGGCUAUAAUGGGUAUGGAGGAGGACCUGGAGGUGGCAA,0.508
ACCAUGCAGGUGGGCAUCUUUGGGAAGUGGGGCAAGGGGGGGAUAGGGAGGGGGGUAACACUUUCGGAACAGGUGGUCCCAGGUCGUUUC,1.78
AGUCCUGUGCUACACAUCGUAUGUACCGAAUCAAAUUUAAACCCCCAAACCCCCAAAAAAGUAUUAUGUUACGCCGUUCGGAUCUGCACU,-0.551
CAAGUCCUGUGCUACACAUCGUAUGUACCGAAUCGGGAAAGGGAAAAAGGGUGGGAAAGUAUUAUGUUACGCCGUUCGGAUCUGCACUUC,0.78
UCAAGUCCUGUGCUACACAUCGUAUGUACCGAAUCGGGUUGGGGUUGGGGUUGGGAAAGUAUUAUGUUACGCCGUUCGGAUCUGCACUUC,0.872

# Sample 5 — method: RNA Bind-n-Seq; form: RNA; sample: in vitro; concentration: 365 nM; reference: no-protein control; direction: higher = stronger binding
# Target: RNA binding protein fox-1 homolog 2, RRM domain, GST-SBP tag (RBFOX2, Homo sapiens, UniProt O43251-10, residues 100-194)
# Setting: natural RNA segment, single round, ends assumed
# All sequences stand within: GGGAGUUCUACAGUCCGACGAUC … UGGAAUUCUCGGGUGCCAA
# Construct (chain): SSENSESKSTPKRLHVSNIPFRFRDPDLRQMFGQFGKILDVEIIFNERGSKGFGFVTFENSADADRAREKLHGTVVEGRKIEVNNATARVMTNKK
Oligonucleotide,RBNS enrichment (R)
GAGUGGUGGCCUAUUUCAGCUGCUUUGACAAAAUGACUGGCUCCUGACUUAACGUUCUAUAAAUGAAUGUGCUGAAGCAAAGUGCCCAUGGUGGCGGCGAAGAAGAGAAA,0.867
CUGGAGAGUGUGUGUACCGUGUGCACUUGACUAAGGUCACAACAGAACGUUGUGUUGUAUUCUCCCCACCACCCUUCAACCUGAACUUCCUGCUACUGUCUCACAGAAGG,0.283
AGUGUCAGGCUAGAAAUUGAAUUGCUGAGUUUUGUGUAUCCUUUAAAUUAAAAACCACAAGUGUUUAUUGUAGUGGUUAAACUGUAGCAUCUCAGCAUCUGGGUGGAAGC,1.45
UCCCUAAUGGGAUUUUUUUUACCUGUUCCUGGGCCCAUUACAGAGCCUCUGAAGUUUGCAGUAUGCUUUCAAAUGAAAUAAUAUACUUCCAUUGAUUCAGGAAGCAGAUU,0.452
CUGUUUCUCCAGUAAAGGACUGGCUUUUGCUUGGGCAGAGGUGGUGCUGCUGGGUGUGCAGCUGCCACAGACUCCAAAGGCGUAGAAGUUUGUGCCAACACACGGAGUCA,0.536
UUUCCUGUCAGCUGUUGACACCUUGGUAGGAGCUCUCAUUAUUACAUUCUCCAUUCUCCAUUUCCCUCUUCAAGGAUGGGCAAUCUACCAAAAUCCCUCAAGAUAACCCU,0.805
CAGGCACCAGGCGCAAACUGCUUCCCGCUGUUGGCCAUCCCUUCCCCAGCCACAGGUGUCCCUGCCCCCAGGACAGUCCAGGGCCAGGGGCUUCUGUGAGAGGCAGAGGG,0.187
UUAAGCUGCCUGUGAUAUGUCCACUGGGCUGAGAUUGGAGGCCUCAGGCAGGAGCCCACCCAUAGUUCUCUUCCCUAUGACGACUUCCCCAGAUAGCAUUAGCCACCCUG,0.489

# Excerpt of the above (sample 1):
SMILES,inhibition [%]
CC[C@H](NC(=O)c1c(C)c(-c2ccccc2)nc2ccccc12)c1ccccc1,-2.01
O=C(O)c1ccccc1NC(=O)N1CCC(c2ccccc2C(F)(F)F)CC1,-3.45
Cc1cc(-c2ncc(CC(=O)Nc3ccc(-c4cnccn4)cn3)cc2C)ccn1,-2.51
CC(OC(=O)OC1CCCCC1)OC(=O)C1=C(CSc2nnnn2CCN(C)C)CS[C@@H]2[C@H](NC(=O)Cc3csc(N)n3)C(=O)N12 (stereo partly drawn),2.42
CCN(CC)CCNc1ccc(CO)c2sc3ccccc3c(=O)c12,2.76
